Measurements pooled from the literature.
Each line is one published result; not all experiments were run side by side. Several values in a cell are separate wells, animals, samples, runs or records. ± marks the error that the study gave.

Substance	cell line	effect on	technique	time	notes	IC50
C=C1C(=O)O[C@@H]2C/C(C)=C\CC(=O)[C@](C)(OC(C)=O)C[C@H](OC(=O)/C(C)=C\C)[C@@H]12	HT-29	cytotoxicity				4 µM
O=C(/C=C/c1ccc(Cn2cc(Cn3cnc4ccccc4c3=O)nn2)cc1)NO	MRC5	cell growth or viability	MTT	48 h		36.7 µM
O=C(CCCCCCC(=O)N[c-]1cccc1)NO.[Fe+2].c1cc[cH-]c1	MCF7	cell growth or viability				2.4 µM and 2.44 µM
COc1cccc2c1C(=O)c1c(O)c3c(c(O)c1C2=O)C[C@@](O)(C(=O)CO)C[C@@H]3O[C@H]1C[C@H](N)[C@H](O)[C@H](C)O1	MRC5	cell growth or viability	MTT	48 h		0.42 µM
Nc1cc(N2C(=O)c3ccccc3C2=O)nc(SCC(=O)NN=Cc2ccc(Cl)cc2)n1	WI-38 normal lung fibroblasts	cell growth			10% fetal bovine serum	87.4 ± 4.4 µM
dolastatin 16	HT-29	cell viability	MTT	48 h		78 µM
O=C(/C=C/c1ccc(Cn2cc(Cn3cnc4ccc(I)cc4c3=O)nn2)cc1)NO	MRC5	cell growth or viability	MTT	48 h		73 µM
C=CC(C)(CO)c1cc2cc(-c3ccc(O)cc3O)c(=O)oc2cc1O (stereo not drawn)	HT-29	cell growth or viability				> 10 µM
curcumin	NCM460	cytotoxicity	MTT			431 µM
C=C1C(=O)O[C@@H]2/C=C(/C)C3=CC(=O)[C@@](C)(C[C@H](OC(=O)/C(C)=C\C)[C@@H]12)O3	HT-29	cytotoxicity				1.4 µM
CC1(C)c2cc(CC(=O)c3ccc(O)cc3O)c(O)cc2OC1CO (stereo not drawn)	HT-29	cell growth or viability				> 10 µM
CC1=C(CO)C(=O)O[C@@H]([C@@H](C)[C@H]2CC[C@H]3[C@@H]4C[C@H]5O[C@]56[C@@H](O)C=CC(=O)[C@]6(CO)[C@H]4CC[C@]23C)C1	SK-MEL-28 melanoma	cell viability	MTS			5.6 ± 0.6 µM
O=C(/C=C/c1ccc(Cn2cc(Cn3cnc4ccc(Cl)cc4c3=O)nn2)cc1)NO	MRC5	cell growth or viability	MTT	48 h		20.7 µM
C=CC(C)(C)c1cc(C(=O)c2c(-c3cc(-c4cc5cc(C(C)(C)C=C)c(O)cc5oc4=O)c(O)cc3O)oc3cc(O)ccc23)c(O)cc1O	HT-29	cell growth or viability				1.6 µM
CCCCC(CC)COC(=O)CC(C(=O)OCC(CC)CCCC)S(=O)(=O)O.CN(C)C(=N)N=C(N)N (stereo not drawn)	MYCN-2	cytotoxicity	SRB			150 µM
C=C1C(=O)O[C@@H]2C[C@@H](C)/C=C\C(=O)[C@](C)(OC(C)=O)C[C@H](OC(=O)/C(C)=C\C)[C@@H]12	HT-29	cytotoxicity				1.2 µM
C=CC(C)(O)Cc1cc2cc(-c3ccc(O)cc3O)c(=O)oc2cc1O (stereo not drawn)	HT-29	cell growth or viability				> 10 µM
O=C(NO)c1ccc(Cn2cc(Cn3cnc4ccc(F)cc4c3=O)nn2)cc1	MRC5	cell growth or viability	MTT	48 h		36.3 µM

For quick reference, copied from above:
Substance	cell line	effect on	technique	time	notes	IC50
C=CC(C)(C)c1cc(C(=O)c2c(-c3cc(-c4cc5cc(C(C)(C)C=C)c(O)cc5oc4=O)c(O)cc3O)oc3cc(O)ccc23)c(O)cc1O	HT-29	cell growth or viability				1.6 µM
CC1(C)c2cc(CC(=O)c3ccc(O)cc3O)c(O)cc2OC1CO (stereo not drawn)	HT-29	cell growth or viability				> 10 µM
